Experimental data collected from several papers.
Protocols differ between the studies behind these lines. Numbers after ± are the reported error.

CC(C)C[C@H](NC(=O)[C@@H](CCCCNC(=O)[C@@H](Cc1ccccc1)NC(=O)CCCCCCCNC(=O)CN1CCN(CC(=O)O)CCN(CC(=O)O)CCN(CC(=O)O)CC1)NC(=O)[C@H](Cc1ccc(O)cc1)NC(=O)[C@H](CO)NC(=O)[C@H](Cc1c[nH]c2ccccc12)NC(=O)[C@H](Cc1c[nH]cn1)NC(=O)[C@@H]1CCC(=O)N1)C(=O)N[C@@H](CCCNC(=N)N)C(=O)N1CCC[C@H]1C(=O)NCC(N)=O [indium-111 labelled]  tissue uptake (male athymic nude mice, DU-145 prostate cancer xenograft, heart; intravenous, dose not given, 1 h, together with: unlabeled blocking peptide 10 µg): 0.17 ± 0.06 %ID/g
O=C([O-])CN1CCN(CC(=O)[O-])CCN(CC(=O)NC[C@H]2CC[C@H](C(=O)N[C@H](Cc3cnc4ccccc4c3)C(=O)NCCCC[C@H](NC(=O)N[C@@H](CCC(=O)O)C(=O)O)C(=O)O)CC2)CCN(CC(=O)[O-])CC1.[64Cu+2]  tissue uptake (ex vivo gamma counting; 22Rv1 tumour-bearing mice, spleen; intravenous, 0.74 MBq, 1 h post-injection): 5.56 %ID/g
N#C[C@@H]1CCCN1C(=O)CNC(=O)c1ccnc2ccc(OCCCN3CCN(C(=O)CCc4ccc5c(c4)CN4CCN6CC(=O)[O][68Ga-]([O]C(=O)C4)([O]5)[O]c4ccc(CCC(=O)N5CCN(CCCOc7ccc8nccc(C(=O)NCC(=O)N9CCC[C@H]9C#N)c8c7)CC5)cc4C6)CC3)cc12  tissue uptake (BALB/c nude mice, U-87 MG xenograft, kidney; 1 h): 2.78 ± 1.12 %ID/g
CCCC[C@H](NC(=O)COCCOCCNC(=O)CN1CCN(CC(=O)O)CCN(CC(=O)O)CC1)C(=O)N[C@H]1CC(=O)NCCCC[C@@H](C(N)=O)NC(=O)[C@H](Cc2c[nH]c3ccccc23)NC(=O)[C@H](CCCNC(=N)N)NC(=O)[C@@H](Cc2ccccc2)NC(=O)[C@H](Cc2c[nH]cn2)NC1=O [fluorine-18 labelled]  tissue uptake (C57 mice B16-F10 melanoma, stomach; intravenous, 0.37 MBq, 0.5 h): 1.69 ± 0.52 %ID/g
O=C(NCC1OC2CCC=CCCC2O1)c1ccc(COCCOCCOCC[18F])cc1 (stereo not shown)  tissue uptake (healthy female BALB/c nude mice, stomach; intravenous, 7.4 MBq per mouse, 15 min): 3.1 ± 0.5 %ID/g
COc1ccc2c(c1)C(C)(C)C(/C=C/C1=C(Oc3ccc(C(=O)NCCCCOc4cc(CN(Cc5ccccn5)Cc5ccccn5)cc(CN(Cc5ccccn5)Cc5ccccn5)c4)cc3)C(=C/C=C3/N(CCCCS(=O)(=O)[O-])c4ccc(OC)cc4C3(C)C)CCC1)=[N+]2CCCCS(=O)(=O)[O-].O=[N+]([O-])[O-].O=[N+]([O-])[O-].[99Tc+].[C-]#[O+].[C-]#[O+].[C-]#[O+].[Zn+2]  tissue uptake (BALB/c mice, S. aureus myositis, adrenals; 12 h post-injection): 5.13 %ID/g
CCCC[C@H](NC(=O)CNC(=O)CNC(=O)[C@H](CCCCNC(=O)[C@H](CC(N)=O)NC(=O)C(C)c1ccc(CC(C)C)cc1)NC(=O)CN1CCN(CC(=O)O)CCN(CC(=O)O)CCN(CC(=O)O)CC1)C(=O)N[C@H]1CC(=O)NCCCC[C@@H](C(N)=O)NC(=O)[C@H](Cc2c[nH]c3ccccc23)NC(=O)[C@H](CCCNC(=N)N)NC(=O)[C@@H](Cc2ccccc2)NC(=O)[C@H](Cc2c[nH]cn2)NC1=O (stereo partly shown) [lutetium-177 labelled]  tissue uptake (C57 mice, tumour-bearing, pancreas; 2 h): 0.39 ± 0.12 %ID/g
O=C(NCC1OC2CCC=CCCC2O1)c1ccc([18F])nc1 (stereo not shown)  tissue uptake (healthy female BALB/c nude mice, large intestine; intravenous, 7.4 MBq per mouse, 2 min): 3.3 ± 0.2 %ID/g
CCCC[C@H](NC(=O)CNC(=O)CNC(=O)[C@H](CCCCNC(=O)C(C)c1ccc(CC(C)C)cc1)NC(=O)CN1CCN(CC(=O)O)CCN(CC(=O)O)CCN(CC(=O)O)CC1)C(=O)N[C@H]1CC(=O)NCCCC[C@@H](C(N)=O)NC(=O)[C@H](Cc2c[nH]c3ccccc23)NC(=O)[C@H](CCCNC(=N)N)NC(=O)[C@@H](Cc2ccccc2)NC(=O)[C@H](Cc2c[nH]cn2)NC1=O (stereo partly shown) [lutetium-177 labelled]  tissue uptake (C57 mice, tumour-bearing, liver; 2 h): 15 ± 1.88 %ID/g
COc1ccc(Nc2nc(Nc3ccc(OCCOCC[18F])cc3)ncc2Br)cc1  tissue uptake (ICR mice, S180 tumour, bone; intravenous, 30 min, together with: PF-562271 33 mg/kg oral 1 h before): 3.39 ± 0.24 %ID/g
CCCC[C@H](NC(=O)CCCCCCCNC(=O)CN1CCN(CC(=O)O)CCN(CC(=O)O)CC1)C(=O)N[C@H]1CC(=O)NCCCC[C@@H](C(N)=O)NC(=O)[C@H](Cc2c[nH]c3ccccc23)NC(=O)[C@H](CCCNC(=N)N)NC(=O)[C@@H](Cc2ccccc2)NC(=O)[C@H](Cc2c[nH]cn2)NC1=O [fluorine-18 labelled]  tissue uptake (C57 mice, B16/F10 melanoma, lung; intravenous, 1 h, together with: NDP-MSH 10 µg): 1.57 ± 0.41 %ID/g
Cc1cc(C)n(CCN(CCN)CCCCCCNC(=O)[C@@H](N)Cc2c[nH]cn2)n1.[99Tc+].[C-]#[O+].[C-]#[O+].[C-]#[O+]  tissue uptake (BALB/c nude mice, MCF7 xenograft, intestine; intravenous, 15 min): 10.8 ± 1.05 %IA/g
CCCC[C@H](NC(=O)CNC(=O)CNC(=O)[C@H](CCCCNC(=O)[C@H](CC(=O)O)NC(=O)C(C)c1ccc(CC(C)C)cc1)NC(=O)CN1CCN(CC(=O)O)CCN(CC(=O)O)CCN(CC(=O)O)CC1)C(=O)N[C@H]1CC(=O)NCCCC[C@@H](C(N)=O)NC(=O)[C@H](Cc2c[nH]c3ccccc23)NC(=O)[C@H](CCCNC(=N)N)NC(=O)[C@@H](Cc2ccccc2)NC(=O)[C@H](Cc2c[nH]cn2)NC1=O (stereo partly shown) [lutetium-177 labelled]  tissue uptake (C57 mice, tumour-bearing, kidneys; intravenous, 0.037 MBq, 24 h): 7.38 ± 1.78 %ID/g

Repeated from above:
O=C(NCC1OC2CCC=CCCC2O1)c1ccc(COCCOCCOCC[18F])cc1 (stereo not shown)  tissue uptake (healthy female BALB/c nude mice, stomach; intravenous, 7.4 MBq per mouse, 15 min): 3.1 ± 0.5 %ID/g
COc1ccc2c(c1)C(C)(C)C(/C=C/C1=C(Oc3ccc(C(=O)NCCCCOc4cc(CN(Cc5ccccn5)Cc5ccccn5)cc(CN(Cc5ccccn5)Cc5ccccn5)c4)cc3)C(=C/C=C3/N(CCCCS(=O)(=O)[O-])c4ccc(OC)cc4C3(C)C)CCC1)=[N+]2CCCCS(=O)(=O)[O-].O=[N+]([O-])[O-].O=[N+]([O-])[O-].[99Tc+].[C-]#[O+].[C-]#[O+].[C-]#[O+].[Zn+2]  tissue uptake (BALB/c mice, S. aureus myositis, adrenals; 12 h post-injection): 5.13 %ID/g
